Results collected from several papers.
A part holds a random share of what one study measured.

Block 1
Target: Sal-like protein 4, full length isoform B (SALL4, Homo sapiens, UniProt Q9UJQ4-2, residues 1-616)
Technique: universal PBM
Form: double-stranded DNA, one strand shown
Sample: in vitro
Concentration: not given
Notes: 8-mer, flanks averaged, mean of replicates
Direction: higher = stronger binding
Quantity: E-score
Construct (chain): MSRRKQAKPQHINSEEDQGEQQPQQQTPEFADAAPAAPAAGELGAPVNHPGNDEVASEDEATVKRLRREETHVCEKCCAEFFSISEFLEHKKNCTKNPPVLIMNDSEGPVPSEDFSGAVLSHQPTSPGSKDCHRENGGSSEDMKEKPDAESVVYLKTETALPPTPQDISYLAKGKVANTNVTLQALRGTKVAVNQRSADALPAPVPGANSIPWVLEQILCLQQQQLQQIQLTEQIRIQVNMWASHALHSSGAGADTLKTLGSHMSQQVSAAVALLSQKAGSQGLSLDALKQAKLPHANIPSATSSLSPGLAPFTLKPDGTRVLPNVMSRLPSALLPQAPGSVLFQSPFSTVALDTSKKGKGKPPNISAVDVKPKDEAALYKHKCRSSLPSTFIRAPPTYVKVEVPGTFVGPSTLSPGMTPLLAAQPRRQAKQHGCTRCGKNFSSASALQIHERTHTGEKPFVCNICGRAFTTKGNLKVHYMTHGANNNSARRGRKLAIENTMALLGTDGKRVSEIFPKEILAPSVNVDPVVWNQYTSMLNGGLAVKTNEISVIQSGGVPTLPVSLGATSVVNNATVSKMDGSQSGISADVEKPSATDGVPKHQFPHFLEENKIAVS
Oligonucleotide = CACAGGCC; result = -0.126
Oligonucleotide = AGTAAAAA; result = 0.356
Oligonucleotide = CGAGGACA; result = -0.226
Oligonucleotide = CCAGGGGC; result = -0.378
Oligonucleotide = AGAGCCGA; result = -0.136

Block 2
Target: Hepatocyte nuclear factor 3-beta, forkhead domain (FOXA2, Homo sapiens, UniProt Q9Y261, residues 142-269)
Technique: protein-binding microarray
Form: double-stranded DNA, one strand shown
Sample: in vitro
Concentration: not given
Notes: k-mer, scored over probes, only values ≥0.25
Direction: higher = stronger binding
Quantity: E-score
Target sequence (chain): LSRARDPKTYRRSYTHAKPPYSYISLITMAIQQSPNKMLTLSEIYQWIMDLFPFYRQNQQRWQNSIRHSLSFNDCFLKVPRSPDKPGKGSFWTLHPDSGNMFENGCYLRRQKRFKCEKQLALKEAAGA
Oligonucleotide = AACAATAA; result = 0.356
Oligonucleotide = ACATTGAA; result = 0.257
Oligonucleotide = GGATAAAC; result = 0.263
Oligonucleotide = AATCGTAG; result = 0.255
Oligonucleotide = TTATTGAA; result = 0.315
Oligonucleotide = CGATATAA; result = 0.261
Oligonucleotide = CACTTACA; result = 0.311

Block 3
Target: Histone acetyltransferase KAT6A, winged helix 1, GST fusion (KAT6A, Homo sapiens, UniProt Q92794, residues 1-85)
Technique: protein binding microarray
Form: double-stranded DNA, one strand shown
Sample: in vitro
Concentration: not given
Notes: 8-mer, flanks averaged, mean of 2 arrays, mostly near background
Relative to: not given
Direction: higher = stronger binding
Quantity: E-score
Residues (chain): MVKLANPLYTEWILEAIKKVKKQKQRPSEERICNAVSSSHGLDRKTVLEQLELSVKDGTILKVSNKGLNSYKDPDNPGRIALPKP
Oligonucleotide = AAGCCTAA; result = -0.137
Oligonucleotide = TCGCACCA; result = -0.0795
Oligonucleotide = TACGACCA; result = -0.171
Oligonucleotide = CTATCGCA; result = -0.0197

Mixed results
Molecule = PhoQ, residues 284 288 289 292 302 303 SSTLSG; target = PhoP, residues 12 14 15 18 19 LHSVW (Escherichia coli, UniProt P23836); assay = Sort-seq, measured: YFP reporter; system = E. coli; conditions = PhoQ-PhoP variant library, with: 10 µM Mg2+; how to read = relative to: high Mg2+ state, higher = stronger signaling; quantity = fold induction; result = 2.83

Some of these lines once more (block 1):
Oligonucleotide = CGAGGACA; result = -0.226
Oligonucleotide = CCAGGGGC; result = -0.378
